Published values gathered from unrelated publications.
Each line is one published result; not all experiments were run side by side. Values joined by “and” are separate records of one study, mostly repeats; a detail may differ. Numbers after ± are the reported error.
ribH: 6,7-dimethyl-8-ribityllumazine synthase (ribH, Mycobacterium tuberculosis, UniProt P9WHE9)
Sequence of UniProt P9WHE9 (whole entry, looked up): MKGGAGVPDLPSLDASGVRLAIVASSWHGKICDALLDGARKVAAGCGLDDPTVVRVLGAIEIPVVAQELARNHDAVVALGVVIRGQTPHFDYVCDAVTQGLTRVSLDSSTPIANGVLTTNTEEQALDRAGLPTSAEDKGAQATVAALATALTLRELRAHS
RIPK1: Receptor-interacting serine/threonine-protein kinase 1 (RIPK1, Homo sapiens, UniProt Q13546)
Sequence of UniProt Q13546 (whole entry, looked up): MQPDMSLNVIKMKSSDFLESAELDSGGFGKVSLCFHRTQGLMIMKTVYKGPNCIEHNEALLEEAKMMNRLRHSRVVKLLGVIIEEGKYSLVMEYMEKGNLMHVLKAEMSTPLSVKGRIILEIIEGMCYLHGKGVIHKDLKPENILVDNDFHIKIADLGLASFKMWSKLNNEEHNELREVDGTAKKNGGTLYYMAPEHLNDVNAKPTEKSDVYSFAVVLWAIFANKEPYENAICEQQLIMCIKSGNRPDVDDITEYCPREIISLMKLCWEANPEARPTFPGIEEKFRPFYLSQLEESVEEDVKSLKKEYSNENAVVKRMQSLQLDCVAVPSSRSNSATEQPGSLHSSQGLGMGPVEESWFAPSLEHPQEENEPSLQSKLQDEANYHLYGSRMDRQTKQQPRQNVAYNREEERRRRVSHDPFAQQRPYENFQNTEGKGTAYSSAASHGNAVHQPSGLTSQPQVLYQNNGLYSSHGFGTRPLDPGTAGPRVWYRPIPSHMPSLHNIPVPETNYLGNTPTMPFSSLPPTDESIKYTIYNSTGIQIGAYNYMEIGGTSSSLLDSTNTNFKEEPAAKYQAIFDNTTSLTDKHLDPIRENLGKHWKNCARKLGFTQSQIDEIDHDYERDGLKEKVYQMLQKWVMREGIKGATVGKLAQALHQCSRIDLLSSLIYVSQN
CYP2A6: Cytochrome P450 2A6 (CYP2A6, Homo sapiens, UniProt P11509)
Sequence of UniProt P11509 (whole entry, looked up): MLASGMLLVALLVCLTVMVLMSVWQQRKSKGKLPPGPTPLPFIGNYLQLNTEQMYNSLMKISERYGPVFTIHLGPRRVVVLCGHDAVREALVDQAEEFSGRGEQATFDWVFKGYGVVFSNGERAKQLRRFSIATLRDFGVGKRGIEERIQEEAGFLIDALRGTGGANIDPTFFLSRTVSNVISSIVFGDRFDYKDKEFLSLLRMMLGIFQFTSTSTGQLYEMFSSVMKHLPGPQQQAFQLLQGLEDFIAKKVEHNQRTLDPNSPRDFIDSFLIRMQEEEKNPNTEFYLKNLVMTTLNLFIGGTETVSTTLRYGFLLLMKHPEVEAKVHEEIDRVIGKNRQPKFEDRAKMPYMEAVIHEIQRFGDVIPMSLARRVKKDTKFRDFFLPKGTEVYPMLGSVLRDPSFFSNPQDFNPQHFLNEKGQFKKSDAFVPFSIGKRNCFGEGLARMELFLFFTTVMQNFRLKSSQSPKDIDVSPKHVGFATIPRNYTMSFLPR
MAPK1: Mitogen-activated protein kinase 1 (MAPK1, Homo sapiens, UniProt P28482)
Sequence of UniProt P28482 (whole entry, looked up): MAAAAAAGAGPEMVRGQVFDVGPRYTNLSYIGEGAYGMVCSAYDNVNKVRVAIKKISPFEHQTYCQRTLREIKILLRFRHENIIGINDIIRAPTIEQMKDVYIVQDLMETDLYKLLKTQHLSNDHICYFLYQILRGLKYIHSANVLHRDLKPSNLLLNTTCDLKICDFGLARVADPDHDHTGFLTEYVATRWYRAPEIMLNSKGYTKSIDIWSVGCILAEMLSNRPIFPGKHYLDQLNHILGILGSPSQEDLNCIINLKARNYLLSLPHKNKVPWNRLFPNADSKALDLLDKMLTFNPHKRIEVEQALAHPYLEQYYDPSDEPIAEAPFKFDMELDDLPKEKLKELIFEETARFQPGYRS
TSPO A147T: Translocator protein, A147T (TSPO, Homo sapiens, UniProt P30536)
Sequence of UniProt P30536 (whole entry, unmodified, looked up): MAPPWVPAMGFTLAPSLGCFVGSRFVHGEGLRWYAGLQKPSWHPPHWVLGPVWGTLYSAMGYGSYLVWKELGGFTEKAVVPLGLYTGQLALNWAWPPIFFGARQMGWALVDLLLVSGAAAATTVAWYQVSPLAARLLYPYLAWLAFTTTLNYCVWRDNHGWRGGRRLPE
Sequence of UniProt P19687 (whole entry, looked up): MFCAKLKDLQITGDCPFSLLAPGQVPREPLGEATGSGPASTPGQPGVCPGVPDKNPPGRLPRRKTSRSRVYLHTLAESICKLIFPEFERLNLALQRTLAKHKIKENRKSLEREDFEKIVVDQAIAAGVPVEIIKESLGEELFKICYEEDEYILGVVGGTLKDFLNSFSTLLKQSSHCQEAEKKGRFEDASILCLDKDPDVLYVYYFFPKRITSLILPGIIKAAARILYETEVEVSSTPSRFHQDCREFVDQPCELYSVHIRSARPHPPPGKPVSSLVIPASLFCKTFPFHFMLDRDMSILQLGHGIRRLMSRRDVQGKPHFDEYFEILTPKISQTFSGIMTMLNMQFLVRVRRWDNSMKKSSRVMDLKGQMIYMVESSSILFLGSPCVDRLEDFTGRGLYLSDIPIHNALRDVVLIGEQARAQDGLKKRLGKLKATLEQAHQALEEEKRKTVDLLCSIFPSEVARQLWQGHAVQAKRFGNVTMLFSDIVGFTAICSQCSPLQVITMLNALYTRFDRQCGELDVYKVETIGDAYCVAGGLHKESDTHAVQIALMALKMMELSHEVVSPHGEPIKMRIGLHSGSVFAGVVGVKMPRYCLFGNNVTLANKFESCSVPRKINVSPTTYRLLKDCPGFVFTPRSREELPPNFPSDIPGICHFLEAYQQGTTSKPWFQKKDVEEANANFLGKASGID
Sequence of UniProt P31424 (whole entry, looked up): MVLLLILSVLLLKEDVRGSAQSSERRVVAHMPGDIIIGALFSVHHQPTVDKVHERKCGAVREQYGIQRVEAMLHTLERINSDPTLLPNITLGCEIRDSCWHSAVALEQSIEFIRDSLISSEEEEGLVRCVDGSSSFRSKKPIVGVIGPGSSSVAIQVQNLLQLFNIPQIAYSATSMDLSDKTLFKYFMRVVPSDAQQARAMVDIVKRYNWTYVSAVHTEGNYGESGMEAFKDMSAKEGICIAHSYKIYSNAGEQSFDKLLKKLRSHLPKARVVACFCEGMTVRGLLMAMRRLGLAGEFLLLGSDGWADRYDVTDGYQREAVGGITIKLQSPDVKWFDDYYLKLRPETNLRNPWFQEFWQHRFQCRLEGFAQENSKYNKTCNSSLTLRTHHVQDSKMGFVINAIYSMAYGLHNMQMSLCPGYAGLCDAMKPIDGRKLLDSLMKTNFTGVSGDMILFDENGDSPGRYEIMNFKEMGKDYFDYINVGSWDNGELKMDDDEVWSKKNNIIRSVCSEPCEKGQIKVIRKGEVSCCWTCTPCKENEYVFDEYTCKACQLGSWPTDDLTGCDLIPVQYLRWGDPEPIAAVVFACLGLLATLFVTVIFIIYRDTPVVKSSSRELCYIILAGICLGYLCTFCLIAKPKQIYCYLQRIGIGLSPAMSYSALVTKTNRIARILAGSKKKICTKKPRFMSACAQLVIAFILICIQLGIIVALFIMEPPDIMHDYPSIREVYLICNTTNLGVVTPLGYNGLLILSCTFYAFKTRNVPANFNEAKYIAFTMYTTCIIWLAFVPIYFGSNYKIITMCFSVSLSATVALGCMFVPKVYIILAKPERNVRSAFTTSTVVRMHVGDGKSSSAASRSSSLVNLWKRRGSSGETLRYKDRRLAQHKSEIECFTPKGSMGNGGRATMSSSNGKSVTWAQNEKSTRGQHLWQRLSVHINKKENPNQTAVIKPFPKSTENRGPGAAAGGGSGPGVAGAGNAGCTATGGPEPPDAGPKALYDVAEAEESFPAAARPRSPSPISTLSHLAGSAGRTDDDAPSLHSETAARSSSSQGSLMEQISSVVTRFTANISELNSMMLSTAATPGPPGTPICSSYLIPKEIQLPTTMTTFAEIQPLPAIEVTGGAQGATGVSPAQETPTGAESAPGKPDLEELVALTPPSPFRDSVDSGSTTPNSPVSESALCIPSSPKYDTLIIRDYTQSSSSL
Sequence of UniProt P43114 (whole entry, looked up): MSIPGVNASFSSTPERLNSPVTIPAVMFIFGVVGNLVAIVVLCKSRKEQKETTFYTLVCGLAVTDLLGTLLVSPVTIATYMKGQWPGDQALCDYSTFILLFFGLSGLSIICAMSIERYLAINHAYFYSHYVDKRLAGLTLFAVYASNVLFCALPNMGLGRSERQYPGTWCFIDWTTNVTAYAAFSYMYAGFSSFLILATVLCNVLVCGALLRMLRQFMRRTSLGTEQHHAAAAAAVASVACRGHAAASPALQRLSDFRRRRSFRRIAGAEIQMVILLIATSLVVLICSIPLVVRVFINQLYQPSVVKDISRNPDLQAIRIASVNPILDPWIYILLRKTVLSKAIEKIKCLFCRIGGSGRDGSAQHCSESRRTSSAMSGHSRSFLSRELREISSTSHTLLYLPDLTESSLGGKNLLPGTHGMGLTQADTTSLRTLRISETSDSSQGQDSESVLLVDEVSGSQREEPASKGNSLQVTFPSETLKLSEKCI
Sequence of UniProt P19111 (whole entry, looked up): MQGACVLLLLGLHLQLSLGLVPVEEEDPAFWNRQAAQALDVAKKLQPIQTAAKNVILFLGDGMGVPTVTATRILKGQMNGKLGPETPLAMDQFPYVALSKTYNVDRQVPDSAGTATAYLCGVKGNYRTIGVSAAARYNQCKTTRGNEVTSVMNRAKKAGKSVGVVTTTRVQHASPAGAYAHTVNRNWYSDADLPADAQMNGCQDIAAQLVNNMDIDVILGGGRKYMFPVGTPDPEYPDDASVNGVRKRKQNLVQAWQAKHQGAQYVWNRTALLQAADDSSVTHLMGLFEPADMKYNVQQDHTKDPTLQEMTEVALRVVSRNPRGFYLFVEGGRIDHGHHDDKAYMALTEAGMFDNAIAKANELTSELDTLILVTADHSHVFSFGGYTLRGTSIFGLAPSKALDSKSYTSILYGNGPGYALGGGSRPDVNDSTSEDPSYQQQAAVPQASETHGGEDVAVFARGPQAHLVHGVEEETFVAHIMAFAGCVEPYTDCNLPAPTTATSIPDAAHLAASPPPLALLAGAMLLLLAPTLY

| Molecule | target | test | system | setting | Ki |
| --- | --- | --- | --- | --- | --- |
| C=Cc1ccc(C(=O)Nc2ccc([C@@H]3C[C@H]3N)cc2)cc1 (relative stereo) | KDM1A (Homo sapiens, UniProt O60341) | enzyme activity, inhibitor | – | – | 2.7 µM |
| CCOC(=O)C1=C(O)C(=O)N(Cc2ccccc2)C1 | AKR1B10 (Homo sapiens, UniProt O60218) | enzyme activity, inhibitor | – | – | 13 µM |
| Nc1nc(=O)[nH]nc1Nc1ccc(O)cc1 | GUCY1B1/GUCY1A1 (Bos taurus, UniProt P16068+P19687) | enzyme activity, inhibitor | – | non-competitive, together with: SNAP 100 µM, GTP | 28 ± 11 µM |
| C=C(C)C(=O)Nc1c(SC[C@H](O)[C@H](O)[C@H](O)CO)[nH]c(=O)[nH]c1=O | ribH | inhibitor | – | pH 7.0, together with: substrate 1 varied, other substrate 2 constant | 198 ± 72 µM |
| COc1ccccc1/C=C/c1nc(O)nc(O)c1[N+](=O)[O-] | ribH | enzyme activity, inhibitor | – | pH 7.0 | 28 ± 7 µM |
| CN1C(=O)C(Cc2c[nH]c3ccccc23)NC1=S (stereo not drawn) | RIPK1 | binding, fluorescence polarisation competition | – | together with: fluorescein-necrostatin-3 | 2.4 ± 0.4 µM |
| CCCCCCCCCCCC=O | CYP2A6 | inhibitor | – | 30 min, pH 7.4 | 48 ± 9 µM |
| CCCCCCCCCCCCNC(=O)[C@@H]1CCCN1C(=O)[C@@H]1CCCN1 | F12 (Homo sapiens, UniProt P00748) | enzyme activity, inhibitor | – | – | > 1000 µM |
| COc1cncc(C=O)c1 | Nicotinamidase (Plasmodium falciparum, UniProt O97284) | competitive inhibitor | – | together with: nicotinamide | 0.039 ± 0.004 µM |
| O=c1[nH]c(/C=C/c2ccc(F)cc2)c([N+](=O)[O-])c(=O)[nH]1 | ribH | enzyme activity, inhibitor | – | pH 7.0 | 86 ± 51 µM |
| CCCCCCC/C=C/C=O | CYP2A6 | competitive inhibitor, measured: 7-hydroxycoumarin | human liver S9 | 30 min, pH 7.4, together with: coumarin | 59 ± 6 µM |
| C(=C1c2ccccc2-c2c1ccc1ccccc21)c1cc2c3c(cccc3c1)-c1ccccc1-2 | Aminopeptidase N (ANPEP, Sus scrofa, UniProt P15145) | enzyme activity, inhibitor | – | 30 min preincubation, 37 °C, together with: L-Leu-pNA | 1.63 µM |
| COc1cccc(/C=C/c2[nH]c(=O)[nH]c(=O)c2[N+](=O)[O-])c1F | ribH | enzyme activity, inhibitor | – | pH 7.0 | 24 ± 6 µM |
| CCC#CC[C@H](C)[C@H](O)/C=C/[C@H]1CCC(=O)N1CCCCCCC(=O)O | Ptger4 (Rattus norvegicus, UniProt P43114) | ligand displacement, radioligand | – | – | 0.00111 µM |
| O=c1[nH]c(/C=C/c2cccc(O)c2)c([N+](=O)[O-])c(=O)[nH]1 | ribH | enzyme activity, inhibitor | – | pH 7.0 | 7.1 ± 0.8 µM |
| COC(=O)C1(C)C=CC(=O)CC1 (stereo not drawn) | MAPK1 | ligand displacement, FP | – | – | > 200 µM |
| O=c1[nH]c(OC[C@H](O)[C@H](O)[C@H](O)CO)c([N+](=O)[O-])c(=O)[nH]1 | ribH | inhibitor | – | pH 7.0, together with: substrate 1 varied, other substrate 2 constant | 60 ± 5 µM |
| O=c1[nH]c(/C=C/c2ccccc2O)c([N+](=O)[O-])c(=O)[nH]1 | ribH | enzyme activity, inhibitor | – | pH 7.0 | 95 ± 6 µM |
| COc1ccc2c(c1)C1=NN(C(C)=O)C(c3ccc(F)cc3)C1CC2 (stereo not drawn) | RIPK1 | binding, fluorescence polarisation competition | – | together with: fluorescein-necrostatin-3 | 0.76 ± 0.21 µM |
| Cc1cc(-c2cccc(-n3cc(COC(=O)[C@]4(C)C=C(C(=O)OC(C)(C)C)C(=O)CC4)nn3)c2)c(C)c2c1CNCC2 | MAPK1 | ligand displacement, FP | – | – | 4.4 µM |
| O=C(O)c1ccccn1 | mushroom tyrosinase | diphenolase activity, inhibitor | – | pH 6.8, 20 °C, together with: caffeic acid substrate | 2930 µM |

| Molecule | target | test | system | setting | Ki |
| --- | --- | --- | --- | --- | --- |
| 5′-deoxy-5′-Pro-DADMe-ImmA | MTA/SAH nucleosidase (Campylobacter jejuni subsp. jejuni, UniProt Z9IB28FKP7) | inhibitor | – | slow-onset tight binding | 0.0014 µM |
| O=c1c(O)c(-c2ccc(O)cc2)oc2cc(O)ccc12 | UGT1A1 (Homo sapiens, UniProt P22309) | glucuronidation, mixed-type inhibitor, recombinant enzyme | – | together with: 4'-hydroxyflavone substrate | 0.87 ± 0.21 µM |
| Cc1cccc(NC(=O)c2ccc(-c3cccc(C#N)c3)cc2)n1 | Grm5 (Rattus norvegicus, UniProt P31424) | ligand displacement, radioligand | – | cell membranes | > 10 µM |
| CC(=O)N[C@H]1C(O)O[C@H](CO)[C@@H](O[C@@H]2O[C@H](CO)[C@H](O)[C@H](O)[C@H]2O)[C@@H]1O[C@@H]1O[C@@H](C)[C@@H](O)[C@@H](O)[C@@H]1O (stereo partly drawn) | Collectin-12, C-type lectin domain (COLEC12, Homo sapiens, UniProt Q5KU26) | – | – | – | 87 µM |
| CCCC/C=C/C=O | CYP2A6 | inhibitor | – | 30 min, pH 7.4 | 9 ± 1 µM |
| COc1cc(/C=C/C(=O)N2CCC=CC2=O)cc(OC)c1OC | STAT3 (Homo sapiens, UniProt P40763) | binding to pY peptide, surface plasmon resonance | – | – | 0.068 µM |
| Nc1ncnc2c1ncn2[C@@H]1O[C@H](COP(=O)(O)OP(=O)(O)OP(=O)(O)O)[C@@H](O)[C@H]1O | ALPI (Bos taurus, UniProt P19111) | – | – | pH 8 | 7.6 ± 1.8 µM |
| O=C(O)c1ccc(/C=C/c2[nH]c(=O)[nH]c(=O)c2[N+](=O)[O-])c(O)c1 | ribH | enzyme activity, inhibitor | – | pH 7.0 | 197 ± 112 µM |
| CC1(CCN2CCc3ccccc3C2)Cc2cc(Cl)ccc2C1=O (stereo not drawn) | HTR2C (Homo sapiens, UniProt P28335) | radioligand binding | – | together with: [3H]Mesulergine | 1.38 µM |
| CCCCCC/C=C/C=O | CYP2A6 | inhibitor | – | 30 min, pH 7.4 | 34 ± 3 µM |
| Nc1ccc(C(=O)O)cc1 | mushroom tyrosinase | monophenolase activity, inhibitor | – | pH 6.8, 20 °C, together with: p-coumaric acid substrate | 3.8 µM |
| CCN(CC)C(=O)Cn1c2ccccc2c2cc(-c3ccccc3OC)ccc21 | TSPO A147T | radioligand binding | – | together with: [3H]PK11195 | 0.137 ± 0.0209 µM |
| O=c1[nH]c(/C=C/c2ccc(Br)cc2)c([N+](=O)[O-])c(=O)[nH]1 | ribH | enzyme activity, inhibitor | – | pH 7.0 | 26 ± 5 µM |
| Nc1nc2c(ncn2[C@@H]2O[C@@H]3COP(=O)(O)O[C@H]3[C@H]2O)c(=O)[nH]1 | Cyclic nucleotide-gated potassium channel (Spirochaeta thermophila, UniProt G0GA88) | channel activity, inhibitor, single-channel bilayer recording | – | 100 mV, together with: cAMP 100 µM | ~4 µM and 4 µM |
| C[C@@H](O[C@H]1OCCN(Cc2n[nH]c(=O)[nH]2)[C@H]1c1ccc(F)cc1)c1cc(C(F)(F)F)cc(C(F)(F)F)c1 | UGT2B7 (Homo sapiens, UniProt P16662) | enzyme activity, inhibitor | – | 30 min, pH 6.5 | 15.1 µM |
| COc1ccc(/C=C/c2[nH]c(=O)[nH]c(=O)c2[N+](=O)[O-])cc1OC | ribH | enzyme activity, inhibitor | – | pH 7.0 | 32 ± 16 µM |
| O=C(CC(F)(F)F)Nc1c(NC[C@H](O)[C@H](O)[C@H](O)CO)[nH]c(=O)[nH]c1=O | ribH | inhibitor | – | pH 7.0, together with: substrate 1 varied, other substrate 2 constant | 100 ± 20 µM |
| CCN(CC)C(=O)Cn1c2ccccc2c2cc(Br)ccc21 | TSPO A147T | radioligand binding | – | together with: [3H]PK11195 | 0.161 ± 0.0206 µM |
| CC1(C)C=C(C(=O)OC(C)(C)C)C(=O)CC1 | MAPK1 | ligand displacement, FP | – | – | 31.2 µM |
| CCN(CC)C(=O)Cn1c2ccccc2c2cc(-c3ccccc3)ccc21 | TSPO A147T | radioligand binding | – | together with: [3H]PK11195 | 0.16 ± 0.031 µM |
| CC[C@H](C)[C@H](NC(=O)CN)C(=O)N[C@H](C(=O)N[C@@H](CC(N)=O)C(=O)N[C@H](C(=O)N[C@@H](CC(C)C)C(=O)N[C@@H](CCC(N)=O)C(=O)N[C@@H](CCCCN)C(=O)N[C@@H](Cc1ccc(O)cc1)C(=O)N[C@@H](Cc1ccc(O)cc1)C(=O)N[C@@H](CO)C(=O)N[C@@H](CCCNC(=N)N)C(=O)N[C@H](C(=O)N[C@@H](CCCNC(=N)N)C(=O)NCC(=O)NCC(=O)N[C@@H](CCCNC(=N)N)C(=O)N[C@@H](CO)C(=O)N[C@@H](C)C(=O)N[C@H](C(N)=O)C(C)C)C(C)C)[C@@H](C)O)[C@@H](C)CC | MC4R (Homo sapiens, UniProt P32245) | ligand displacement in cells | – | – | 0.744 µM |

A few entries again:
| Molecule | target | test | system | setting | Ki |
| --- | --- | --- | --- | --- | --- |
| O=C(O)c1ccccn1 | mushroom tyrosinase | diphenolase activity, inhibitor | – | pH 6.8, 20 °C, together with: caffeic acid substrate | 2930 µM |
| 5′-deoxy-5′-Pro-DADMe-ImmA | MTA/SAH nucleosidase (Campylobacter jejuni subsp. jejuni, UniProt Z9IB28FKP7) | inhibitor | – | slow-onset tight binding | 0.0014 µM |
| O=c1c(O)c(-c2ccc(O)cc2)oc2cc(O)ccc12 | UGT1A1 (Homo sapiens, UniProt P22309) | glucuronidation, mixed-type inhibitor, recombinant enzyme | – | together with: 4'-hydroxyflavone substrate | 0.87 ± 0.21 µM |
| Cc1cccc(NC(=O)c2ccc(-c3cccc(C#N)c3)cc2)n1 | Grm5 (Rattus norvegicus, UniProt P31424) | ligand displacement, radioligand | – | cell membranes | > 10 µM |
| CC(=O)N[C@H]1C(O)O[C@H](CO)[C@@H](O[C@@H]2O[C@H](CO)[C@H](O)[C@H](O)[C@H]2O)[C@@H]1O[C@@H]1O[C@@H](C)[C@@H](O)[C@@H](O)[C@@H]1O (stereo partly drawn) | Collectin-12, C-type lectin domain (COLEC12, Homo sapiens, UniProt Q5KU26) | – | – | – | 87 µM |
